Results pooled from the literature.
Each line is one published result; not all experiments were run side by side. Several values in a cell are separate wells, animals, samples, runs or records. ± marks the error that the study gave.
CASP6: Caspase-6 (CASP6, Homo sapiens, UniProt P55212)
TDP1: Tyrosyl-DNA phosphodiesterase 1 (TDP1, Homo sapiens, UniProt Q9NUW8)
Gria1: Glutamate receptor 1 (Gria1, Rattus norvegicus, UniProt P19490)
PLIN3: Perilipin-3 (PLIN3, Homo sapiens, UniProt O60664)
Uncharacterized protein: Uncharacterized protein (Trypanosoma brucei brucei, UniProt Q386Q8)
T1: RNA, abasic bulge mismatch; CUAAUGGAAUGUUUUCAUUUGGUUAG
T2: RNase P RNA (Methanobrevibacter smithii); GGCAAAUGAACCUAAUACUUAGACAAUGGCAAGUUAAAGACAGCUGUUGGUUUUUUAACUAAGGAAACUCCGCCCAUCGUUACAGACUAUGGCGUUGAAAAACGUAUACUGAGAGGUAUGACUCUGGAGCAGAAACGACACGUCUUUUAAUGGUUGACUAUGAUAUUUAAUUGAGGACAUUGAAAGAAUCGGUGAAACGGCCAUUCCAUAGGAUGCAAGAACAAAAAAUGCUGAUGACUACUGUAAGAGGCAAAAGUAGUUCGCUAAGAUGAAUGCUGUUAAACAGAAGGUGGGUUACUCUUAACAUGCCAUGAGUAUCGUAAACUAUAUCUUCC

Compound	target	test	system	conditions	scale	measurement	value
CC(=O)N[C@@H](CO)C(=O)N[C@H](C(=O)N1CCC[C@H]1C(=O)N[C@@H](CC(=O)O)C(=O)COC(=O)c1c(C)cccc1C)C(C)(C)C	CASP6	enzyme activity, inhibitor	–	–	–	kinact/KI	1300 M⁻¹ s⁻¹
O=C(O)c1ccc(Nc2c(-c3ccc(CON=Cc4cccc(-n5cccc5)c4)cc3)nc3cc(-c4ccccc4)ccn23)cc1	TDP1	enzyme activity, inhibitor	–	100 µM, unpurified compound	–	inhibition	21.8%
CN(Cc1cc(C2CC2)on1)C(=O)c1cccc(-c2ccc3c(c2)CCO3)c1	Acetyl-CoA synthetase (Cryptococcus neoformans, UniProt J9VFT1)	enzyme activity, inhibitor, coupled pyrophosphate	–	15.6 µM	higher is more activity	reaction rate	0.000435 a.u.
O=C(N1CCCC1)n1cc(-c2ccc(-c3ccccc3)cc2)nn1	Dipeptidyl peptidase 8 (Dpp8, Mus musculus, UniProt Q80YA7)	probe labelling, inhibitor, competitive ABPP-SILAC, item: Dpp8	mouse T cells	concentration not given, 4 h, protein level	baseline: treated over DMSO cells, lower = stronger inhibition	SILAC activity ratio	1.28
COC(=O)Cc1cc2c(cc1C(=O)c1ccccc1I)OCO2	Gria1	glutamate-evoked current, whole-cell patch clamp	HEK-293T	concentration not given, weighted tau, 1 ms pulse, with: glutamate	–	deactivation time constant	2.4 ± 0.1 ms
O=C(O)c1ccc(Nc2c(-c3ccc(CON=Cc4ccc(OCc5cnc(Cl)s5)cc4)cc3)nc3cc(-c4ccccc4)ccn23)cc1 (mixture of isomers)	TDP1	enzyme activity, inhibitor	–	100 µM, unpurified compound	–	inhibition	37.6%
CC(C)[C@@H]1NC(=O)[C@H](Cc2ccccc2)NC(=O)CSC[C@@H](C(N)=O)NC(=O)[C@H](CCC(=O)O)NC(=O)[C@H](CO)NC(=O)[C@H](Cc2c[nH]c3cccc(Cl)c23)NC(=O)[C@H](C2CCCCC2)NC(=O)[C@H](C(C)C)NC(=O)[C@H](Cc2ccc(O)cc2)NC(=O)[C@H](CC(=O)O)NC(=O)[C@H](Cc2c[nH]c3ccccc23)NC(=O)[C@H](Cc2ccc(N)nc2)NC(=O)[C@H](Cc2c[nH]c3ccc(Cl)cc23)NC(=O)[C@H](CCC(=O)O)NC1=O	Interleukin-1 receptor-like 2 (IL1RL2, Homo sapiens, UniProt Q9HB29)	reporter gene (SEAP), inhibitor, HEK-Blue IL-36R reporter	HEK-Blue IL-36R cells	1.23 µM, 6 h, with: IL-36γ 0.3 ng/mL	–	remaining activity	9.7%
O=C(O)c1ccc(Nc2c(-c3ccccc3)nc3ccc(CON=Cc4ccc(-c5nnn[nH]5)cc4)cn23)cc1	TDP1	enzyme activity, inhibitor	–	100 µM, unpurified compound	–	inhibition	2.5%
CC(C)Oc1cc(Cl)ccc1CNc1cc(-c2ccccc2)nc2ncnn12	GPR3 (Homo sapiens, UniProt P46089, I200W)	cAMP GloSensor	human cells	10 µM	higher is more cAMP	cAMP luminescence	15200 a.u. and 22600 a.u. and 16900 a.u. and 17400 a.u.
CC[C@H](C)[C@@H]1NC(=O)[C@H](Cc2c[nH]c3ccccc23)NC(=O)[C@H](Cc2ccccc2)N(C)C(=O)[C@H](C(C)C)NC(=O)[C@H](CC(C)C)NC(=O)[C@H](Cc2ccccc2)NC(=O)CSC[C@@H](C(=O)N[C@@H](CC(N)=O)C(N)=O)NC(=O)[C@H](Cc2ccccc2)NC1=O	Bromodomain-containing protein 4, BD1 (BRD4, Homo sapiens, UniProt O60885)	thermal stability, DSF	–	200 µM	–	ΔTm	1.34 °C
CCCCCC=CC=C1C(=O)C=CC1CC=CCCCC(=O)O (stereo not shown)	Chromatin accessibility complex protein 1, Cys55 (CHRAC1, Homo sapiens, UniProt Q9NRG0)	competitive isoTOP-ABPP	proteome, soluble, MDA-MB-231	100 µM, 60 min, with: iodoacetamide probe	baseline: DMSO over compound-treated, higher = stronger cysteine blockade	isoTOP-ABPP competition ratio	14
CN(Cc1ccccc1)c1ncc(C=NOCc2ccc3nc(-c4ccccc4)c(Nc4ccc(C(=O)O)cc4)n3c2)s1	TDP1	enzyme activity, inhibitor	–	100 µM, unpurified compound	–	inhibition	11.4%
CCCCCCOc1ccc(C(=O)OCC[N+]2(C)CC=CCC2)cc1 (stereo not shown)	CHRM5 (Homo sapiens, UniProt P08912)	–	membranes	10 µM, 15 h, no carbachol	baseline: control	basal binding	1.14 ± 0.04 fold
CC(=O)N1C[C@H](O)C[C@H]1C(=O)N[C@H](C(=O)N[C@@H](CO)C(=O)N[C@@H](CC(=O)O)C(=O)COC(=O)c1c(C)cccc1C)C(C)C	CASP6	enzyme activity, inhibitor	–	–	–	kinact/KI	600 M⁻¹ s⁻¹
CCCCCCCO[C@H]1O[C@H](CO)[C@@H](O)[C@H](O)[C@@H]1O	Type 1 fimbrin D-mannose specific adhesin, lectin domain (fimH, Escherichia coli K-12, UniProt P08191)	binding, isothermal titration calorimetry	–	25 °C, individual direct titrations	–	-TΔS	1.63 kcal/mol and 1.86 kcal/mol
CCCCCC(O)/C=C/C=O (stereo not shown)	PLIN3	competitive isoTOP-ABPP, item: M6PRBP1 cysteine peptide	proteome, soluble, MDA-MB-231	100 µM, with: iodoacetamide probe	baseline: DMSO over compound-treated, higher = stronger cysteine blockade	isoTOP-ABPP competition ratio	2.6
Fc1ccc(Nc2nc(NC3CCCCC3)c3cc(Cl)ccc3n2)cc1F	ADRB2 (Homo sapiens, UniProt P07550)	β-arrestin2 recruitment, PathHunter and GloSensor	–	–	baseline: GloSensor IC50 over PathHunter IC50	bias factor	> 250 fold
CCCCCCCC/C=C\CCCCCCCC(=O)NCCO	Trpv1 (Mus musculus, UniProt Q704Y3, S511A)	ion current, agonist, whole-cell patch clamp	–	S511A	baseline: 3 mM 2-APB	maximal open probability	0.74 ± 0.13
COc1ccc(C(N)=O)cn1	Nicotinamide N-methyltransferase, SAH-bound (NNMT, Homo sapiens, UniProt P40261)	differential scanning fluorimetry	–	1 mM, with: 100 µM SAH	–	ΔTm	0 °C
Cc1ccc(C2CC(=O)N2S(=O)(=O)c2cccc(Cl)c2)cc1 (stereo not shown)	glpG (Escherichia coli, UniProt P09391)	enzyme activity, inhibitor, gel-based chimeric protein substrate	–	–	–	IC50	inactive
CCCCCCCCCCCCC/C=C/C=O	PLIN3	competitive isoTOP-ABPP, item: M6PRBP1 cysteine peptide	Ramos soluble proteome	100 µM, with: iodoacetamide probe	baseline: DMSO over compound-treated, higher = stronger cysteine blockade	isoTOP-ABPP competition ratio	1.3
CC(=O)N1[C@H](C(=O)N[C@@H](CC(C)C)C(=O)N[C@@H](C)C(=O)N[C@@H](CC(=O)O)C(=O)COC(=O)c2c(C)cccc2C)C[C@@H]2CCCC[C@@H]21	CASP6	enzyme activity, inhibitor	–	–	–	kinact/KI	500 M⁻¹ s⁻¹

Compound	target	test	system	conditions	scale	measurement	value
O=C(O)Cc1cc2c(cc1C(=O)c1ccccc1)OCO2	Gria1	glutamate-evoked current, whole-cell patch clamp	HEK-293T	concentration not given, weighted tau, 500 ms pulse, with: glutamate	–	desensitization time constant	2.2 ± 0.1 ms
C#Cc1ccc(C=NOCc2ccc(-c3nc4cc(-c5ccccc5)ccn4c3Nc3ccc(C(=O)O)cc3)cc2)cc1	TDP1	enzyme activity, inhibitor	–	100 µM	–	inhibition	91.7%
COc1ccc(C2(C(=O)N3CCC(Nc4nc5ccccc5c(=O)[nH]4)CC3)CC2)cc1	MRGPRD (Homo sapiens, UniProt Q8TDS7, N157A)	miniGq recruitment, agonist, BRET	HEK293T	N157A mutant	–	Hill slope	1.79
COc1cccc2c(N3CCC(CCP(=O)(O)O)CC3)ncnc12	Enpp1 (Mus musculus, UniProt P06802)	binding, SPR	–	–	–	koff	0.00195 s⁻¹
C#CCOC(=O)[C@@]1(C)C=C(C(=O)OC(C)(C)C)C(=O)CC1	MAPK1 (Homo sapiens, UniProt P28482)	enzyme activity, D-SENSOR	–	0.1829 µM, single replicate	–	normalized kinase activity	0.998 and 1.02 and 1.15
Cc1cc(C=NOCc2ccc(-c3nc4cc(-c5ccccc5)ccn4c3Nc3ccc(C(=O)O)cc3)cc2)c(C)n1CC1COc2ccccc2O1 (stereo not shown)	TDP1	enzyme activity, inhibitor	–	100 µM, unpurified compound	–	inhibition	-17.5%
N#CN1CC[C@H](C(=O)Nc2nc3c(s2)CN(C(=O)Cn2cc(CNC(=O)CCCC[C@@H]4SC[C@@H]5NC(=O)N[C@@H]54)nn2)CC3)C1	Tubulin beta-4B chain (Homo sapiens, UniProt P68371)	probe binding, affinity probe, neutravidin pull-down LC-MS/MS	HEK293T, cell lysate	5 µM, 1 h, single replicate, unit not given	higher = more pulled down	iBAQ abundance	2.78e+08 and 3.54e+08 and 7e+08
Cn1ccc2ccc(C=NOCc3ccc(-c4nc5cc(-c6ccccc6)ccn5c4Nc4ccc(C(=O)O)cc4)cc3)cc21 (mixture of isomers)	TDP1	enzyme activity, inhibitor	–	100 µM, unpurified compound	–	inhibition	54.7%
O=[N+]([O-])c1cc(Br)cc([N+](=O)[O-])c1NS(=O)(=O)c1ccc(Br)cc1	HAB1 (Arabidopsis thaliana, UniProt Q9CAJ0)	inhibitor	–	200 µM, no PYL receptor	higher = more activity	phosphatase activity	0.718 a.u. and 0.827 a.u. and 0.75 a.u.
Cc1ccc2ccc(NC(=O)OCCCN(CCCOC(=O)Nc3ccc4ccc(C)nc4n3)Cc3ccc(/N=N/c4ccc(CN(CCCOC(=O)Nc5ccc6ccc(C)nc6n5)CCCOC(=O)Nc5ccc6ccc(C)nc6n5)cc4)cc3)nc2n1	T1, RNA, abasic bulge mismatch	CSI-TOF-MS	–	before irradiation	–	binding	no binding
COc1ccc(OC)c(C2=Nn3c(nnc3-c3ccc(Cl)cc3)SC2)c1	Uncharacterized protein	inhibitor, coupled colorimetric	Trypanosoma brucei	–	–	Hill slope	0.22
COC(=O)Cc1cc2c(cc1C(=O)c1ccccc1Cl)OCO2	Gria1	glutamate-evoked current, whole-cell patch clamp	HEK-293T	concentration not given, weighted tau, 500 ms pulse, with: glutamate	–	desensitization time constant	1.9 ± 0.1 ms
CC(=O)N[C@@H](CC(=O)O)C(=O)N[C@@H](C)C(=O)N[C@@H](Cc1ccc(N)cc1)C(=O)N[C@@H](CC(=O)O)C(=O)COC(=O)c1c(C)cccc1C	CASP6	enzyme activity, inhibitor	–	–	–	kinact/KI	113000 M⁻¹ s⁻¹
O=C1c2sc(-c3ccc(N4CCC(F)C4)nc3F)nc2CCN1c1cccnc1 (stereo not shown)	TAR DNA-binding protein 43, aggregated (TARDBP, Homo sapiens, UniProt Q13148)	radioligand binding	control brain sarkosyl-insoluble extract	200 nM	–	specific binding	0.237 nM
N[C@@H](Cc1c[nH]c2cc(OCc3ccccc3)ccc12)C(=O)O	SLC7A5 (Homo sapiens, UniProt Q01650)	[3H]-L-leucine uptake	HT-29	–	–	Hill slope	-1.77
NC(=O)c1cccc(CN(Cc2ccc(Cl)c(Cl)c2)C(=O)NC(CN2CCCCC2)c2ccccc2)c1 (stereo not shown)	OPRK1 (Homo sapiens, UniProt P41145)	beta-arrestin recruitment	–	–	–	bias factor	0.15
Cc1cc(Br)c2c(c1)C(O)(CC(=O)c1ccc(F)cc1)C(=O)N2 (stereo not shown)	Uncharacterized protein	inhibitor, coupled colorimetric	Trypanosoma brucei	–	–	Hill slope	-1.74
Cc1nn(C)c(Oc2cccc(C(F)(F)F)c2)c1C=NOCc1ccc(-c2nc3cc(-c4ccccc4)ccn3c2Nc2ccc(C(=O)O)cc2)cc1 (mixture of isomers)	TDP1	enzyme activity, inhibitor	–	100 µM, unpurified compound	–	inhibition	37.3%
CCC1C(c2ccccc2)NC(c2ccccc2)CC1(O)c1ccccc1OC (racemic)	T2, RNase P RNA (Methanobrevibacter smithii)	progress curve cleavage assay	–	with: pre-tRNA	–	Ki	206 µM
COC(=O)Cc1cc2c(cc1C(=O)c1ccccc1)OCO2	Gria1	glutamate-evoked current, whole-cell patch clamp	HEK-293T	concentration not given, weighted tau, 500 ms pulse, with: glutamate	–	desensitization time constant	2.4 ± 0.1 ms
Nc1nnc(-c2ccccc2O)cc1N1CCNCC1	SMARCA2 bromodomain, human	ternary complex binding, TR-FRET competition	–	with: VCB R69A mutant	–	cooperativity factor alpha	1

For quick reference, copied from above:
Compound	target	test	system	conditions	scale	measurement	value
CCCCCCCO[C@H]1O[C@H](CO)[C@@H](O)[C@H](O)[C@@H]1O	Type 1 fimbrin D-mannose specific adhesin, lectin domain (fimH, Escherichia coli K-12, UniProt P08191)	binding, isothermal titration calorimetry	–	25 °C, individual direct titrations	–	-TΔS	1.63 kcal/mol and 1.86 kcal/mol
C#Cc1ccc(C=NOCc2ccc(-c3nc4cc(-c5ccccc5)ccn4c3Nc3ccc(C(=O)O)cc3)cc2)cc1	TDP1	enzyme activity, inhibitor	–	100 µM	–	inhibition	91.7%
N#CN1CC[C@H](C(=O)Nc2nc3c(s2)CN(C(=O)Cn2cc(CNC(=O)CCCC[C@@H]4SC[C@@H]5NC(=O)N[C@@H]54)nn2)CC3)C1	Tubulin beta-4B chain (Homo sapiens, UniProt P68371)	probe binding, affinity probe, neutravidin pull-down LC-MS/MS	HEK293T, cell lysate	5 µM, 1 h, single replicate, unit not given	higher = more pulled down	iBAQ abundance	2.78e+08 and 3.54e+08 and 7e+08
